Measurements from different studies.
Several values in a cell are separate wells, animals, samples, runs or records. In brackets after ≈: the same amount, converted by molar mass.

| SMILES | target | assay | test system | setting | how to read | quantity | result |
| --- | --- | --- | --- | --- | --- | --- | --- |
| COc1ccc(CCNCC(O)COc2cccc(C)c2)cc1OC (stereo not drawn) | Nedd8-cullin1 interaction | neddylation, AlphaScreen |  | 100 µM |  | inhibition | 87.9% |
| N#Cc1ccn2c(-c3ccncc3)c(-c3ccc(F)cc3)nc2c1 | Pom1 kinase Candida albicans | MIB/MS competition binding | Candida albicans cell lysate | 10 µM | reference: DMSO, lower = stronger binding | log2 fold change | -0.502 |
| COC(=O)C1=C(C)NC(C)=C(C(=O)O[C@@H]2CCCN(Cc3ccccc3)C2)[C@@H]1c1cccc([N+](=O)[O-])c1.Cl (racemic) | Nedd8-cullin1 interaction | neddylation, AlphaScreen |  | 100 µM |  | inhibition | 60.3% |
| Oc1ccccc1-c1n[nH]cc1-c1ccnc2ccccc12 | orf19.4144 Candida albicans | kinase binding, MIB/MS competition | Candida albicans lysate | 10 µM | reference: DMSO | log2 fold change | 0.01 |
| Cc1n[nH]c2ccc(-c3cc(OC[C@@H](N)Cc4ccccc4)cnc3-c3ccoc3)cc12 | Pom1 kinase Candida albicans | MIB/MS competition binding | Candida albicans cell lysate | 1 µM | reference: DMSO, lower = stronger binding | log2 fold change | -0.345 |
| Cc1c(CN2CCN(C(=O)[C@H](C)O)CC2)sc2c(N3CCOCC3)nc(-c3cnc(N)nc3)nc12 | phospho-Akt | Akt phosphorylation, inhibitor | human patients with alveolar rhabdomyosarcoma, plasma | PK-PD study |  | IC50 | 6.7 ng/mL (≈ 0.0134 µM) |
| c1coc(-c2n[nH]cc2-c2ccnc3ccccc23)c1 | orf19.4144 Candida albicans | kinase binding, MIB/MS competition | Candida albicans lysate | 10 µM | reference: DMSO | log2 fold change | -0.18 |
| Nc1ncnc2c1ncn2[C@@H]1O[C@H](COP(=O)(O)OP(=O)(O)OP(=O)(O)O)[C@@H](O)[C@H]1O | Nedd8-cullin1 interaction | neddylation, AlphaScreen |  | 100 µM |  | inhibition | 14% |
| [Ca+2] | human TRPA1 W1103A | ion current, two-electrode voltage clamp | Xenopus oocytes | +80 mV, with: AITC, EGTA-AM 0.5 mM 20 min |  | desensitization time constant | 91.8 s and 177 s and 140 s and 139 s and 186 s and 116 s and 85 s |

For quick reference, copied from above:
| SMILES | target | assay | test system | setting | how to read | quantity | result |
| --- | --- | --- | --- | --- | --- | --- | --- |
| Oc1ccccc1-c1n[nH]cc1-c1ccnc2ccccc12 | orf19.4144 Candida albicans | kinase binding, MIB/MS competition | Candida albicans lysate | 10 µM | reference: DMSO | log2 fold change | 0.01 |
